Results from different studies.
Lines come from different studies, so protocols differ. Values joined by “and” are separate records of one study, mostly repeats; a detail may differ. ± marks the error that the study gave.
GBA2: Beta-glucosidase (GBA2, Homo sapiens, UniProt Q9HCG7)
Chain of UniProt Q9HCG7 (whole entry, looked up): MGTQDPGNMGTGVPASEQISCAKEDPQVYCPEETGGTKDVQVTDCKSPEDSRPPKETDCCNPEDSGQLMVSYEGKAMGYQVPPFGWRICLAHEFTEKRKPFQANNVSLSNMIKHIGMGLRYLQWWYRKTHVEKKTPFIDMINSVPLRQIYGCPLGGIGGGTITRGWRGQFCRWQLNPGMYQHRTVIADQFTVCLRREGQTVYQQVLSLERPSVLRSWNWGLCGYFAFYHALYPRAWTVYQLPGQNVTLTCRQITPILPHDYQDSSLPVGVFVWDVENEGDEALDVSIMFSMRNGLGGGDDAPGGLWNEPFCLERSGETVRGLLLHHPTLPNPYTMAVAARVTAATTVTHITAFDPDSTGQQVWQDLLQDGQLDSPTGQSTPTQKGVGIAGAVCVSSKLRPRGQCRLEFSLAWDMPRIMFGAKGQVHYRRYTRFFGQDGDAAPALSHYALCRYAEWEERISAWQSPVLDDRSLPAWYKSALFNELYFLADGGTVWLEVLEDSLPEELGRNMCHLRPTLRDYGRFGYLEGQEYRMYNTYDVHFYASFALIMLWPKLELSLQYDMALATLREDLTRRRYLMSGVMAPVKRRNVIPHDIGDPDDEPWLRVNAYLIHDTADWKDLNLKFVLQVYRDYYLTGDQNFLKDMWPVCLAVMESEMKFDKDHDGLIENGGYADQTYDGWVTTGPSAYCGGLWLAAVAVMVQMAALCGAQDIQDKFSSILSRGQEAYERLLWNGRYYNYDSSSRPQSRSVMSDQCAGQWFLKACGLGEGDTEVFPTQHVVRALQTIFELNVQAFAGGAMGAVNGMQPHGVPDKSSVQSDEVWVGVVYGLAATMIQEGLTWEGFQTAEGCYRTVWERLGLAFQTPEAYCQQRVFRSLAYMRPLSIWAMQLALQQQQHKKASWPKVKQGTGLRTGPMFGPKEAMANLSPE
IL1RL2: Interleukin-1 receptor-like 2 (IL1RL2, Homo sapiens, UniProt Q9HB29)
Chain of UniProt Q9HB29 (whole entry, looked up): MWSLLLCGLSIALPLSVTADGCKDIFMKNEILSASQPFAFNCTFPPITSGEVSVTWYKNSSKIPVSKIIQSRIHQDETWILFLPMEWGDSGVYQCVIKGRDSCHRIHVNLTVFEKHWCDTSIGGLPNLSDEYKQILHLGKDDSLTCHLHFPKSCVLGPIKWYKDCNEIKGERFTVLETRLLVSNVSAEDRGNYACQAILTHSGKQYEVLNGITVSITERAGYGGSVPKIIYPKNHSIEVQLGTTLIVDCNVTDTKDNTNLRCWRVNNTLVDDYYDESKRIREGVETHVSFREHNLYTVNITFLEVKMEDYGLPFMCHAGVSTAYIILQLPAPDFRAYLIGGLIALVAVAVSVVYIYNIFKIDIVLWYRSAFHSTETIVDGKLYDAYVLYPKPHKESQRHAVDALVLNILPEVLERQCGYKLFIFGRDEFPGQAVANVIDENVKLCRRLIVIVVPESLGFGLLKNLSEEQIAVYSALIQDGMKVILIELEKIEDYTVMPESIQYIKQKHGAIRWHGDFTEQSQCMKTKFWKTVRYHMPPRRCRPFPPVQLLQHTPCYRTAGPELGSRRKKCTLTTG
CASP3: Caspase-3 (CASP3, Homo sapiens, UniProt P42574)
Chain of UniProt P42574 (whole entry, looked up): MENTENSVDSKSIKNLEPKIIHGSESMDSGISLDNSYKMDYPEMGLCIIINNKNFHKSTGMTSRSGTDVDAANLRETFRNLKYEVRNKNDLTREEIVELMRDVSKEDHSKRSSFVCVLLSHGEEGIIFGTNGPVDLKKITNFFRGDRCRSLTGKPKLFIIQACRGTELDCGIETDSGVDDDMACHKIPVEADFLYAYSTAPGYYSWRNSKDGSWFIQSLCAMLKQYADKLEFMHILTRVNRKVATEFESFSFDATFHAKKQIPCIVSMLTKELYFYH
B4GALT1: Beta-1,4-galactosyltransferase 1 (B4GALT1, Homo sapiens, UniProt P15291)
Chain of UniProt Q92633 (whole entry, unmodified, looked up): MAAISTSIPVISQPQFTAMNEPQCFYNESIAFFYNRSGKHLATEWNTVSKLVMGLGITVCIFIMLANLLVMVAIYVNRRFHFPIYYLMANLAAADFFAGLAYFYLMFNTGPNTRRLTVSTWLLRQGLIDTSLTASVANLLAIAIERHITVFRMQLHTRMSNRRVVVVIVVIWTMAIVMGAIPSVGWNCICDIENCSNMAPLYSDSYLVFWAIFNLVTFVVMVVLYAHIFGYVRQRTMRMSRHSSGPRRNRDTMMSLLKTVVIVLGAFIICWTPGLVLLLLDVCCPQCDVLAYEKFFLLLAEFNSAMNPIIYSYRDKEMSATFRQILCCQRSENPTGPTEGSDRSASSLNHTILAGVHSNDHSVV
Chain of UniProt P31947 (whole entry, looked up): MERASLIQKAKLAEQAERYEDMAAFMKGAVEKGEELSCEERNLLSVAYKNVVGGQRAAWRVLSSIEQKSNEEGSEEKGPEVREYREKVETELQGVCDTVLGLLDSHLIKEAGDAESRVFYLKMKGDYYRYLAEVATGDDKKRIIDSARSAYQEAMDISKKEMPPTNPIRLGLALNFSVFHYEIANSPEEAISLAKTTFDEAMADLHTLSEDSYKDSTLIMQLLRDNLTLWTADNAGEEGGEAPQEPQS
Chain of UniProt P15291 (whole entry, looked up): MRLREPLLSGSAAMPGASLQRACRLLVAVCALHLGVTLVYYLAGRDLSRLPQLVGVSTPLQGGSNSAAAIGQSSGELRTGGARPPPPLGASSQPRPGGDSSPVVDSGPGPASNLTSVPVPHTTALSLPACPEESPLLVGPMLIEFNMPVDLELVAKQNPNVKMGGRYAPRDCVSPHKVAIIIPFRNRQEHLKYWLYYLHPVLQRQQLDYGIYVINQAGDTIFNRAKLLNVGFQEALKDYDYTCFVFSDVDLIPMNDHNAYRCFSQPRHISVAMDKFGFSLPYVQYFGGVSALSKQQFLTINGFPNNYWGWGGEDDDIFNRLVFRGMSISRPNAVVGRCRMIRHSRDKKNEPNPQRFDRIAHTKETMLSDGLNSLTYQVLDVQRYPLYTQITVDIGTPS
Chain of UniProt Q9UHD8 (whole entry, looked up): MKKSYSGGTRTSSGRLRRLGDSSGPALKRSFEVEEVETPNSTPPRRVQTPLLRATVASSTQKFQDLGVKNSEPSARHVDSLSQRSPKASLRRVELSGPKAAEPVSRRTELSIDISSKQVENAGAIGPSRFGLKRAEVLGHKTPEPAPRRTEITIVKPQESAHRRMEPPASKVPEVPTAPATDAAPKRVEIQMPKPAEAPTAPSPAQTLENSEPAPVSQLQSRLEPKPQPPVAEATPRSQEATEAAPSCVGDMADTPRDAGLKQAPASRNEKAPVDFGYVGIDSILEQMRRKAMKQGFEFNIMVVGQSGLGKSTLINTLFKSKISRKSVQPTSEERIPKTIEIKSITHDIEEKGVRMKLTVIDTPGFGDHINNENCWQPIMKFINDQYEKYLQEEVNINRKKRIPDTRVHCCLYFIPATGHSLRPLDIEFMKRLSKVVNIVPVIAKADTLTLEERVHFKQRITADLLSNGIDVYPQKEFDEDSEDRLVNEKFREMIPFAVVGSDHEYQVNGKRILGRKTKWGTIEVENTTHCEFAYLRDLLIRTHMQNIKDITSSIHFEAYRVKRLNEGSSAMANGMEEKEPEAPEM
Chain of UniProt Q5VWZ2 (whole entry, looked up): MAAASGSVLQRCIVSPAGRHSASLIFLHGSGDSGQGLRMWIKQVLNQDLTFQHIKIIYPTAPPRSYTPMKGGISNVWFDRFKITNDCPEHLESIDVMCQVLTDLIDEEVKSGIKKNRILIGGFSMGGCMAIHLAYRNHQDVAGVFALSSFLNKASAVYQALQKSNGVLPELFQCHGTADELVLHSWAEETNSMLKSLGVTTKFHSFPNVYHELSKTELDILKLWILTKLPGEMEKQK
Chain of UniProt O60674 (whole entry, looked up): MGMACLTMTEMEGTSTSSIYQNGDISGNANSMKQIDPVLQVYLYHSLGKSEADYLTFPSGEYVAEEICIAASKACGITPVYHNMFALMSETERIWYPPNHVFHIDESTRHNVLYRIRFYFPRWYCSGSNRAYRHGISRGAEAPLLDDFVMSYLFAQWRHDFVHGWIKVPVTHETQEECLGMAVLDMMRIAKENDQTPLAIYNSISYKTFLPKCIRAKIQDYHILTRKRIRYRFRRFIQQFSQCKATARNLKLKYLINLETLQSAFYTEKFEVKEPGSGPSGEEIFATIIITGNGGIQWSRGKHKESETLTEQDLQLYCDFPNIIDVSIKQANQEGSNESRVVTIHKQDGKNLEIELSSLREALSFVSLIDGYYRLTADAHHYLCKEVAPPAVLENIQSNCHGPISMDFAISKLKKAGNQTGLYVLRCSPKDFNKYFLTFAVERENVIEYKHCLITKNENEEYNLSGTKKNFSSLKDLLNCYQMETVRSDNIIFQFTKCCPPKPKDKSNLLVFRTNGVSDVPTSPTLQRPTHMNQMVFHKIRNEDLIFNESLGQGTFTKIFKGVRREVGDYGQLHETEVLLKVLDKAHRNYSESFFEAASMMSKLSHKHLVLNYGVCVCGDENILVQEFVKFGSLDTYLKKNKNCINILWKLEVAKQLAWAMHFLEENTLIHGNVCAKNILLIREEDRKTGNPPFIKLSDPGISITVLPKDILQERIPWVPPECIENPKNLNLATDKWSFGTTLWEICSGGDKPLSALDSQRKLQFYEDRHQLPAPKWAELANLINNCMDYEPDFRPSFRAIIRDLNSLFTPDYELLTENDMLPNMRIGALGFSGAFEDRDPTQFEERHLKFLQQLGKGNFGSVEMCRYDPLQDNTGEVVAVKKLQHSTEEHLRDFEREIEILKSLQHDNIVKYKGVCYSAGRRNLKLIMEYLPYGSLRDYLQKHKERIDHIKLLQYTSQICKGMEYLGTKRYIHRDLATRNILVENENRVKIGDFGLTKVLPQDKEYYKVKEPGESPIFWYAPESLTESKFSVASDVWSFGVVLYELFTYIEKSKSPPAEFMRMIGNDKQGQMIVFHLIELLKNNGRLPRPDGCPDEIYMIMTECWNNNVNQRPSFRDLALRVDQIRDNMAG

OC[C@@H]1[C@@H](O)[C@H](O)[C@@H](O)CN1CCCC(F)(F)COCc1ccc(-c2ccccc2)cc1
selectivity ratio (GBA2; inhibitor, 4MU-β-D-glucopyranoside; HEK293T homogenates overexpressing GBA2; reference: GBA1 IC50 over GBA2 IC50): 300

CC(C)[C@@H]1NC(=O)[C@H](Cc2ccccc2)NC(=O)CSC[C@@H](C(N)=O)NC(=O)[C@H](CCC(=O)O)NC(=O)[C@H](CO)NC(=O)[C@H](Cc2c[nH]c3cccc(Cl)c23)NC(=O)[C@H](C2CCCCC2)NC(=O)[C@H](C(C)C)NC(=O)[C@H](Cc2ccc(O)cc2)NC(=O)[C@H](CC(=O)O)NC(=O)[C@H](Cc2c[nH]c3ccccc23)NC(=O)[C@H](Cc2ccc(N)nc2)NC(=O)[C@H](Cc2c[nH]c3ccc(Cl)cc23)NC(=O)[C@H](CCC(=O)O)NC1=O
remaining activity (IL1RL2; reporter gene (SEAP), inhibitor, HEK-Blue IL-36R reporter; HEK-Blue IL-36R cells; 0.015 µM, 6 h, added: IL-36β 30 ng/mL): 90.9%

CCCCCCCCCCCCCCCC(=O)N[C@H](CCCNC(=N)N)C(=O)NCCCC[C@H](NC(=O)[C@H](C)NC(=O)[C@H](CCCCNC(=N)N)NC(=O)[C@H](CCC(N)=O)NC(=O)[C@H](Cc1c[nH]cn1)NC(=O)[C@H](CCCC)NC(=O)[C@H](CC(C)C)NC(=O)[C@H](CCC(N)=O)NC(=O)[C@@H](NC(=O)[C@H](CCC(=O)O)NC(=O)C(C)(C)NC(=O)[C@@H](NC(=O)C1(N)CCCC1)C(C)C)[C@@H](C)CC)C(N)=O
Emax (PTH1R (Homo sapiens, UniProt Q03431); cAMP response, agonist, GloSensor cAMP; GP-2.3; washout phase): 143 ± 12%

COc1ccccc1-c1ccc(COCCCCCN2C[C@H](O)[C@@H](O)[C@H](O)[C@H]2CO)cc1
selectivity ratio (GBA2; inhibitor, 4MU-β-D-glucopyranoside; HEK293T homogenates overexpressing GBA2; reference: GCS IC50 over GBA2 IC50): 17

CC(=O)N1C[C@H](O)C[C@H]1C(=O)N[C@@H](CC(C)C)C(=O)N[C@@H](C)C(=O)N[C@@H](CC(=O)O)C(=O)COC(=O)c1c(C)cccc1C
kinact/KI (CASP3; enzyme activity, inhibitor): 13300 M⁻¹ s⁻¹

Cc1cc(C(=O)NC(CC(=O)O)c2ccccc2)cc(=O)[nH]1 (stereo not drawn)
luminescence (B4GALT1; enzyme activity, inhibitor, UDP-Glo; 100 µM; lower means stronger inhibition): 56500 a.u.

CCN(CC)C(CO)c1cccc2c(C)c(C)oc12 (stereo not drawn)
fold change (LPAR1 (Homo sapiens, UniProt Q92633, W271F); G-protein dissociation, agonist, NanoBiT; HEK-293T; 10 nM, W271F mutant; reference: baseline luminescence): 0.997 and 0.603 and 0.863 and 1.03 and 0.929 and 0.868

OC[C@@H]1[C@@H](O)[C@H](O)[C@@H](O)CN1CCCCCOCc1ccc(-c2ccncc2)cc1
selectivity ratio (GBA2; inhibitor, 4MU-β-D-glucopyranoside; HEK293T homogenates overexpressing GBA2; reference: GCS IC50 over GBA2 IC50): 200

CC(=O)N1[C@H](C(=O)N[C@H](C(=O)N[C@@H](Cc2c[nH]cn2)C(=O)N[C@@H](CC(=O)O)C(=O)COC(=O)c2c(C)cccc2C)C(C)(C)C)C[C@@H]2CCCC[C@@H]21
kinact/KI (CASP3; enzyme activity, inhibitor): 5500 M⁻¹ s⁻¹

Cc1cnc(Nc2ccc3c(c2)CCN(C(=O)/C=C/C(=O)c2ccc(Cl)cc2)C3)nc1-c1cnn(C(C)C)c1
selectivity ratio (JAK2 (Homo sapiens, UniProt O60674); ADP-Glo; reference: IC50 JAK3 over IC50 JAK2): > 73.2

CCOC(=O)C1CC(C)C2C=CC3CCN(C(=O)C4CCC5C=CC6(CCCN6C(=O)C(Cc6ccccc6Cl)NC(C)=O)C(=O)N54)C3C(=O)N12 (stereo not drawn)
binding free energy (Vasodilator-stimulated phosphoprotein, EVH1 domain (VASP, Homo sapiens, UniProt P50552); fluorescence titration; 25 °C): -34.9 kJ/mol

Cc1cc(C(=O)N2Cc3ccccc3CC2C(=O)O)cc(=O)[nH]1 (stereo not drawn)
luminescence (B4GALT1; enzyme activity, inhibitor, UDP-Glo; 100 µM; lower means stronger inhibition): 54100 a.u.

O=C(CCCCCN1C[C@H](O)[C@@H](O)[C@H](O)[C@@H]1CO)NC12CC3CC(CC(C3)C1)C2
selectivity ratio (GBA2; inhibitor, 4MU-β-D-glucopyranoside; HEK293T homogenates overexpressing GBA2; reference: GCS IC50 over GBA2 IC50): 27

CCCCCCCCCCCCC/C=C/C=O
isoTOP-ABPP competition ratio (Septin-9 (SEPTIN9, Homo sapiens, UniProt Q9UHD8); competitive isoTOP-ABPP, refers to: SEPT9 cysteine peptide; Ramos soluble proteome; 100 µM, added: iodoacetamide probe; reference: DMSO over compound-treated, higher = stronger cysteine blockade): 1.1

N#Cc1cnc2sc(C(=O)O)cc2c1N1CCc2[nH]nc(C(=O)N[C@@H](CC(=O)NCCOCCN3CCOCC3)c3cccc(Br)c3)c2C1
remaining activity (IL1RL2; reporter gene (SEAP), inhibitor, HEK-Blue IL-36R reporter; HEK-Blue IL-36R cells; 11.11 µM, 6 h, added: IL36A 0.01 ng/mL): 27.3%

CC1(C)CN=C(c2ccc(-c3ccc(-c4ccc(C5=NCC(C)(C)CN5)cc4)o3)cc2)NC1
remaining activity (PRMT5 (Homo sapiens, UniProt O14744); enzyme activity, inhibitor, radiometric; 20 µM): 86.2%

CC(C)=CCOCCCCCN1C[C@H](O)[C@@H](O)[C@H](O)[C@@H]1CO
selectivity ratio (GBA2; inhibitor, 4MU-β-D-glucopyranoside; HEK293T homogenates overexpressing GBA2; reference: GCS IC50 over GBA2 IC50): 328

C#CCOC(=O)[C@]1(C)C=C(C(=O)OC(C)(C)C)C(=O)CC1
relative protein interaction (Mitogen-activated protein kinase 1, with MKK1 (MAPK1, Homo sapiens, UniProt P28482); MKK1-ERK2 interaction, NanoBiT luminescence; HEK293T; concentration not given; reference: untreated): 0.676

N[C@H]1CC[C@H](Nc2nccc(-c3cccnc3Oc3ccc(NC(=O)NC4CC4)c4ccccc34)n2)CC1
log2 LFQ intensity (SFN (Homo sapiens, UniProt P31947); kinobead competition pulldown; HEK293/HCT116 lysate mixture; 10 µM, 1 h, 4 °C; lower = stronger competition): 22.6 and 22.9 and 22.7

O=C(NC1CCN(Cc2ccccc2)C1)C(C(F)(F)F)C(F)(F)F (stereo not drawn)
IC50 (Chymotrypsinogen A (Bos taurus, UniProt P00766); enzyme activity, inhibitor): inactive

C[C@@H](Nc1nc(N[C@H](C)C(F)(F)F)nc(-c2cccc(Cl)n2)n1)C(F)(F)F
maximal inhibition (IDH1 (Homo sapiens, UniProt O75874, R132H); 2-HG production, inhibitor; BT142 neurospheres): 88%

CCCCCCCOCCCCCN1C[C@H](O)[C@@H](O)[C@H](O)[C@H]1CO
selectivity ratio (GBA2; inhibitor, 4MU-β-D-glucopyranoside; HEK293T homogenates overexpressing GBA2; reference: GBA1 IC50 over GBA2 IC50): 117

CC(=O)N[C@H](CCc1ccccc1)C(=O)N[C@@H](CCC(=O)O)C(=O)N[C@@H](CCC(N)=O)C(=O)N[C@@H](CC(=O)O)C(=O)COC(=O)c1c(C)cccc1C
kinact/KI (CASP3; enzyme activity, inhibitor): 12000 M⁻¹ s⁻¹

OC[C@@H]1[C@@H](O)[C@H](O)[C@@H](O)CN1CCCCCOCc1ccc(-c2cccc(F)c2)cc1
selectivity ratio (GBA2; inhibitor, 4MU-β-D-glucopyranoside; HEK293T homogenates overexpressing GBA2; reference: GBA1 IC50 over GBA2 IC50): 25

CC(C)S(=O)(=O)n1nc(SCc2ccc(Cl)cc2)nc1N
probe labeling increase (LYPLAL1 (Homo sapiens, UniProt Q5VWZ2); enzyme activity, activator, gel-based ABPP; purified protein; concentration not given, added: FP-rhodamine; reference: DMSO): 2.2 fold

OC[C@@H]1[C@@H](O)[C@H](O)[C@@H](O)CN1CCCCCOCc1ccc(-c2ccc(F)nc2)cc1
selectivity ratio (GBA2; inhibitor, 4MU-β-D-glucopyranoside; HEK293T homogenates overexpressing GBA2; reference: GBA1 IC50 over GBA2 IC50): 600

O=C1c2sc(-c3ccc(N4CCC(CO)CC4)nc3F)nc2CCN1c1cccnc1
inhibition (MTNR1A (Homo sapiens, UniProt P48039); ligand displacement, radioligand; 1 µM): 3%
